Assay results pooled from the literature.
Compare with care: the assays were run in different laboratories.
Target: Kappa-type opioid receptor (OPRK1, Homo sapiens, UniProt P41145)

Cc1cc(O)cc(C)c1C[C@H](N)C(=O)N[C@H](C)C(=O)NCC(=O)N[C@@H](Cc1ccccc1)C(=O)NNC(=O)[C@H](Cc1ccccc1)NC(=O)CNC(=O)[C@@H](C)NC(=O)[C@@H](N)Cc1c(C)cc(O)cc1C
Emax (GTPγS binding, agonist, radiometric; cell membranes): ~50%

CC(C)[C@H]1CC[C@H](N2CC[C@@](C)(c3cccc(O)c3)[C@@H](C)C2)CC1
efficacy (agonist): 0%

COC(=O)C1C(OC(c2ccc(Cl)cc2)c2ccc(Cl)cc2)CC2CCC1N2C (single isomer, unassigned)
displacement (binding; 10000 nM, added: [3H]diprenorphine): inactive

CC(C)C[C@H](NC(=O)[C@H](Cc1cccc2ccccc12)NC(=O)CNC(=O)[C@H](NC(=O)[C@@H](N)Cc1ccc(O)cc1)[C@H](C)O)C(=O)N[C@@H](CO)C(N)=O
Emax (GTPγS binding, agonist, radiometric; cell membranes): 75%

Cc1cc(O)cc(C)c1CC(N)C(=O)NC1CCNc2c(Cc3ccccc3)cccc21 (stereo not drawn)
maximal stimulation (agonist; CHO cell membranes; 10 µM; baseline: U69593): inactive

CCCCC(=N)NCc1ccc2[nH]c3c(c2c1)CC1(O)C2Cc4ccc(O)c5c4C1(CCN2CC1CC1)C3O5 (stereo not drawn)
selectivity ratio (binding, [3H]-diprenorphine competitive binding; CHO cells expressing κ opioid receptor; baseline: Ki δ over Ki κ): ~5 fold

CCOC(=O)C1C(OC(c2ccc(Cl)cc2)c2ccc(Cl)cc2)CC2CCC1N2C (single isomer, unassigned)
displacement (binding; 10000 nM, added: [3H]diprenorphine): inactive

CC(C)C[C@H](NC(=O)[C@H](Cc1ccc2ccccc2c1)NC(=O)CNC(=O)[C@H](NC(=O)[C@@H](N)Cc1ccc(O)cc1)[C@H](C)O)C(=O)N[C@@H](CO[C@@H]1O[C@H](CO)[C@@H](O)[C@H](O)[C@H]1O)C(N)=O
Emax (GTPγS binding, agonist, radiometric; cell membranes): < 10%

NCc1ccc2[nH]c3c(c2c1)CC1(O)C2Cc4ccc(O)c5c4C1(CCN2CC1CC1)C3O5 (stereo not drawn)
selectivity ratio ([3H]diprenorphine binding; baseline: Ki µ over Ki κ): ~6

A few entries again:
CC(C)[C@H]1CC[C@H](N2CC[C@@](C)(c3cccc(O)c3)[C@@H](C)C2)CC1
efficacy (agonist): 0%
